Experimental data collected from several papers.
Compare with care: the assays were run in different laboratories. Numbers after ± are the reported error.

The blood glucose of `CN(C)c1ccc(-c2oc3ccccc3c(=O)c2OCc2ccccc2)cc1` is reported as 325 ± 4.89 mg/dL (diabetic rat; 7.5 mg/kg, day 7, p-nitrophenyl β-glucoside induced).
Under “intestine to liver ratio”, `COCCOCCOCCOCCOCCOCCOCCOCCOCCOCCOCCOCCOCCOCCOCCOCCOCCOCCOCCOCCOCCOCCNC(=O)CCC1(Cc2ccccc2)c2ccccc2-c2ccc(-c3sc(-c4c5c(c(-c6sc(-c7ccc8c(c7)C(CCC(=O)NCCOCCOCCOCCOCCOCCOCCOCCOCCOCCOCCOCCOCCOCCOCCOCCOCCOCCOCCOCCOCCOCCOC)(Cc7ccccc7)c7ccccc7-8)c7c6OCCO7)c6nsnc46)N=S=N5)c4c3OCCO4)cc21` (stereo not drawn) is recorded as about 0.5 (ex vivo NIR-II imaging; mouse, BDS or BDL biliary atresia; iv, 15 mg/kg, 6 h, days 7 and 14).
Under “inhibition in vivo”, `Fc1ccc(CSc2nnc(C34CC5CC(CC(C5)C3)C4)n2-c2ccccc2)cc1` is recorded as 17.4% (paw oedema; rat; intraperitoneal, 20 mg/kg).
`CCCCCCCCC=CCCCCCCCC(=O)OCC1OC(n2ccc(N)nc2=O)C(F)(F)C1O` (stereo not drawn): “optimal tumour volume T/C” 4% (female nude mouse, colon xenograft, patient-derived colon tumour; oral, 100 mg/kg, dosed days 1 and 8; reference: saline control).
The IC50 of `Cc1ccc(-c2nc3cc(Cl)ccc3[nH]2)o1` is reported as 1.46 µM (ABTS scavenging, absorbance).
With `Cc1cc(O)cc(O)c1C(=O)c1c2c3c(c(O)cc(C)c3oc1=O)C(=O)c1c(O)cc(O)cc1-2` the T/C was 51.2% (Bel-7402 xenograft, mouse; intraperitoneal, 14 mg/kg, day 21).
The blood glucose of `O=c1c(OCc2ccccc2)c(-c2ccc([N+](=O)[O-])cc2)oc2ccccc12` is reported as 328 ± 4.54 mg/dL (diabetic rat; 7.5 mg/kg, day 7, p-nitrophenyl β-glucoside induced).
`CC(=O)N[C@@H](CC(N)=O)C(=O)NCC(=O)N[C@@H](C)C(=O)N[C@@H](C)C(N)=O` — result for “rate constant succinimide to α-Asp”: 0.055 h⁻¹ (1H NMR; sodium phosphate buffer 50 mM; pH 7.4, 28 °C).
The fractional area of `CC[C@H]1[C@@H](O)[C@@H]2[C@H](CC[C@]3(C)[C@@H]([C@H](C)CCOS(=O)(=O)[O-])CC[C@@H]23)[C@@]2(C)CC[C@@H](O)C[C@@H]12.[Na+]` is reported as 29.4 ± 1.3% (immunohistochemistry, refers to: lipid; ob/ob NASH mouse model, liver; 3.0 mg/kg, 16 weeks).
For `CC(C)C[C@@H]1NC(=O)[C@H](CS)NC(=O)[C@H](CCCCN)NC(=O)[C@H](CC(=O)O)N(C(=O)[C@@H](N)Cc2c[nH]c3ccccc23)CCCNC(=O)NCCCCN([C@@H](C)C(N)=O)C1=O`, bone destruction read “no effect” (micro-CT; DBA/1 mouse collagen-induced arthritis; intraperitoneal, 360 pg/g weekly; reference: PBS).
`O=c1c(OCc2ccccc2)c(-c2cccc([N+](=O)[O-])c2)oc2ccccc12` has a blood glucose of 342 ± 4.71 mg/dL (diabetic rat; 5 mg/kg, day 7, p-nitrophenyl β-glucoside induced).
For `C=C(c1ncc(C(=O)O)cn1)c1cc2c(cc1C)C(C)(C)CCC2(C)C`, “log2 fold change” read -0.82 (RNA sequencing, refers to: Inmt mRNA; rat, brain; dose not given, 24 h, single dose; reference: vehicle).
Under “latency of nociceptive response”, `COc1ccc2c(c1)c(CC(=O)OCOC(C)=O)c(C)n2C(=O)c1ccc(Cl)cc1` is recorded as 15.3 ± 1.3 s (hot plate test; BALB/c mice; 50 mg/kg, 120 min).
The alkaline phosphatase of `COc1ccc(C2CC(c3ccc(C)cc3)=Nc3ccccc3S2)cc1` (stereo not drawn) is reported as 207 IU/L (Wistar rat, STZ-induced diabetes, serum; 10 mg/kg, 28 days).
For `Cc1ccc(-c2oc3ccccc3c(=O)c2OCc2ccccc2)cc1`, the blood glucose was 143 ± 4.9 mg/dL (diabetic rat; 5 mg/kg, day 28, p-nitrophenyl β-glucoside induced).
`O=C1c2c(O)cc3oc4cc(O)c(O)cc4c3c2OC1Cc1ccccc1` (stereo not drawn) has an EC50 of 130 µM (DPPH scavenging, absorbance).
For `COc1ccc2c(c1OC)C(C(Cl)(Cl)Cl)N1CCc3cc4c(cc3C1=C2)OCO4` (stereo not drawn), the creatinine was 1.04 ± 0.09 mg/dL (rat, STZ-induced diabetic, serum; oral, 12 mg/kg, day 28).
Under “inhibition in vivo”, `S=c1n(CN2CCN(c3ccccc3)CC2)nc(C23CC4CC(CC(C4)C2)C3)n1-c1ccccc1` is recorded as 14.1% (paw oedema; rat; intraperitoneal, 40 mg/kg).
`CC(=O)Oc1cc2c(s1)CCN(C(C(=O)C1CC1)c1ccccc1F)C2` (stereo not drawn): “patients with high reactivity” 67% (ADP-induced platelet aggregation, LTA, >59% aggregation; human patients, platelet-rich plasma; dose not given, 1 h, with: ADP 20 µM).
`NS(=O)(=O)NCCc1ccccc1F` gave an ED50 of 45 mg/kg (MES seizures; mouse; intraperitoneal).
For `Cc1cc(Nc2cc3ncccc3c(N[C@@H]3C[C@H]4CC[C@@H](C3)N4CCC#N)n2)n[nH]1`, the clinical response was 20% (moderate-severe ulcerative colitis patients; 20 mg, day 28; reference: patients).
With `O=c1c(OCc2ccccc2)c(-c2ccc(Cl)cc2)oc2ccccc12` the blood glucose was 191 ± 5.32 mg/dL (diabetic rat; 7.5 mg/kg, day 21, p-nitrophenyl β-glucoside induced).
The EC50 of `O=C1/C(=C/c2ccccc2)Oc2cc(O)c3c(oc4cc(O)c(O)cc43)c21` is reported as 200 µM (DPPH scavenging, absorbance).
`CCc1nnc(NS(=O)(=O)c2ccc(NC(=S)NC(=O)/C=C/c3ccc(F)cc3)cc2)s1` — result for “reduction of Ki-67 staining”: 55% (cell proliferation; athymic nude mice, SK-N-AS xenograft, tumour; i.p., 20 mg/kg daily, 18 days).
With `COc1cc(CN2CCN(c3ccccc3F)CC2)c2cc3[n+](cc2c1O)CCc1cc2c(cc1-3)OCO2` the IC50 was 6.46 µg/mL (ABTS scavenging, absorbance; 10 min).
`Cc1ccc(C2=C(c3ccc([18F])cc3)C(=O)OC2(C)C)cc1`: “normalized muscle uptake” 0.24 ± 0.2 (PET/CT; mouse, SK-OV-3 xenograft, leg muscle; intraperitoneal, 1 h).
Under urea excretion, `CCOC(=O)c1cc2c(N)c(C(=O)OC)sc2nc1C` is recorded as “no effect” (Sprague-Dawley rats; subcutaneous, dose not given; reference: vehicle).
`CC(C)C[C@H](NC(=O)[C@H](CO)NC(=O)[C@H](CCCNC(=N)N)NC(=O)[C@H](CC(=O)O)NC(=O)[C@H](CCC(=O)O)NC(=O)[C@H](C)NC(=O)[C@@H]1CCCN1C(=O)[C@H](C)NC(=O)[C@H](CCC(=O)O)NC(=O)[C@@H]1CCCN1C(=O)[C@@H]1CCCN1)C(N)=O` — result for “DOPAC/DA ratio reduction”: 56% (dopamine system; rhesus monkey, contralateral globus pallidus; intranasal, dose not given, repeated dose escalation; reference: vehicle).
For `O=C(NCc1cc(F)cc(F)c1)[C@@]1(O)CCN(c2ccc3[nH]ccc3c2)C1=O`, the T/C was 37% (CAKI-1 xenograft, mouse; oral, 25 mg/kg twice daily).
For `COc1ccc(-c2oc3ccccc3c(=O)c2OCc2ccccc2)cc1`, the blood glucose was 126 ± 4.91 mg/dL (diabetic rat; 5 mg/kg, day 28, p-nitrophenyl β-glucoside induced).
`O=c1cc(-c2ccc(O)cc2)oc2c(-c3ccc(O)c(O)c3)c(O)cc(O)c12` has an EC50 of 60 µM (DPPH scavenging, absorbance).
`[64Cu+2].c1cnc(CNCc2ccc(CN3CCCN4CCNCCCN(CC4)CC3)cc2)nc1` has a tissue uptake of 1.04 ± 0.12 %ID/g (CXCR4; NOD/SCID mouse, U87 and U87-stb-CXCR4 xenografts, stomach; iv, 90 min, no blocking dose, ex vivo).
`C=C(c1ccc(C(=O)O)c(F)c1)c1cc2c(cc1C)C(C)(C)C=CC2(C)C`: “log2 fold change” 2.22 (RNA sequencing, refers to: Cga mRNA; rat, brain; dose not given, 24 h, single dose; reference: vehicle).
`COc1cc(CNC(=O)C[C@H](C)CCC=C(C)C)ccc1OCc1cn(-c2ccc(Cl)c(Cl)c2)nn1` gave a growth percent of 77.2% (EKVX; SRB; 10 µM, 48 h).
The food intake of `CSCC[C@@H]1NC(=O)[C@H](CCCCN)NC(=O)[C@H]([C@@H](C)O)NC(=O)[C@H](CCCCN)NC(=O)[C@H](CC(C)C)NC(=O)[C@H](CCCCN)NC(=O)[C@H](CCCNC(=N)N)NC(=O)[C@@H]2CSSC[C@@H]3NC(=O)[C@@H]4CCCN4C(=O)[C@H](C(C)C)NC(=O)[C@H](CCC(N)=O)NC(=O)[C@H](CCC(N)=O)NC(=O)CNC(=O)[C@H](CC(C)C)NC(=O)[C@@H]4CSSC[C@H](NC(=O)[C@H]([C@@H](C)O)NC(=O)[C@H](C)NC(=O)[C@H](CSSC[C@@H](C(=O)N[C@@H](CO)C(=O)N[C@@H](CCCNC(=N)N)C(=O)N[C@H](C(N)=O)[C@@H](C)O)NC(=O)[C@@H]5CCCN5C(=O)[C@H](CC(N)=O)NC1=O)NC(=O)[C@@H]1CCCN1C(=O)[C@H](CC(=O)O)NC(=O)[C@H](CSSC[C@H](NC(=O)[C@H](CCCNC(=N)N)NC(=O)[C@H](CCCNC(=N)N)NC(=O)[C@H](CCCCN)NC(=O)[C@@H](N)CCCCN)C(=O)N[C@@H](C(C)C)C(=O)N[C@@H](CCCNC(=N)N)C(=O)N[C@@H](CC(C)C)C(=O)N[C@@H](Cc1c[nH]cn1)C(=O)N[C@@H](CCC(=O)O)C(=O)N[C@@H](CO)C(=O)N4)NC3=O)C(=O)N[C@@H](Cc1ccc(O)cc1)C(=O)N[C@H]1CSSC[C@H](NC(=O)[C@H](Cc3ccccc3)NC(=O)[C@H](C)NC(=O)[C@H](CC(N)=O)NC(=O)[C@H](Cc3ccccc3)NC(=O)[C@H](Cc3ccccc3)NC(=O)[C@H](CCCNC(=N)N)NC1=O)C(=O)N[C@@H](Cc1ccc(O)cc1)C(=O)N2` is reported as 92.3 ± 8.3 % above saline (Long-Evans rat, male; intracerebroventricular, 1.0 nmol, day 3, non-cumulative; reference: saline).
For `CCOc1cncc(-c2ccc(NC(=O)C(CC)c3ccnc(NS(=O)(=O)C4CC4)n3)nc2)n1` (stereo not drawn), the selectivity ratio was 141 (enzyme activity, inhibitor, RapidFire mass spectrometry; dog; reference: CTPS1 over CTPS2).
For `COC(=O)[C@H](CSSC(C)(C)[C@H](NC(=O)[C@H](CCC(=O)NC[C@H](O)[C@@H](O)[C@H](O)[C@H](O)CO)NC(=O)[C@H](CCC(=O)O)NC(=O)[C@H](CCC(=O)NC[C@H](O)[C@@H](O)[C@H](O)[C@H](O)CO)NC(=O)[C@H](CCC(=O)O)NC(=O)[C@H](CCC(=O)NC[C@H](O)[C@@H](O)[C@H](O)[C@H](O)CO)NC(=O)CC[C@H](NC(=O)c1ccc(NCc2cnc3nc(N)[nH]c(=O)c3n2)cc1)C(=O)O)C(=O)O)NC(=O)CC[C@H](NC(=O)c1ccc(NCc2cnc3nc(N)nc(N)c3n2)cc1)C(=O)O`, “CD172+ CD43− monocyte effect” read “no effect” (flow cytometry; Lewis rat, healthy, blood; 1000 nmol/kg twice weekly × 1).
`COc1c2c(cc3oc(COC4OC(CO)C(O)C(O)C4O)cc(=O)c13)OC(C(C)(C)O)C2` (stereo not drawn): “hot plate latency” 12.2 ± 1.28 s (analgesia; mouse; oral, 4 mg/kg, 1.5 h).
`COc1ccc(S(=O)(=O)N2CCc3ccccc3C2)cc1N1CCN(C(=O)c2ccc(F)cc2C(F)(F)F)CC1` — result for “DAT-ir cells in SNpc”: 9.1 ± 1.7% (6-OHDA lesioned rats; 0.1 µg/24 h, 12 weeks post lesion; reference: intact side).

Some of these lines once more:
For `CCOc1cncc(-c2ccc(NC(=O)C(CC)c3ccnc(NS(=O)(=O)C4CC4)n3)nc2)n1` (stereo not drawn), the selectivity ratio was 141 (enzyme activity, inhibitor, RapidFire mass spectrometry; dog; reference: CTPS1 over CTPS2).
For `COC(=O)[C@H](CSSC(C)(C)[C@H](NC(=O)[C@H](CCC(=O)NC[C@H](O)[C@@H](O)[C@H](O)[C@H](O)CO)NC(=O)[C@H](CCC(=O)O)NC(=O)[C@H](CCC(=O)NC[C@H](O)[C@@H](O)[C@H](O)[C@H](O)CO)NC(=O)[C@H](CCC(=O)O)NC(=O)[C@H](CCC(=O)NC[C@H](O)[C@@H](O)[C@H](O)[C@H](O)CO)NC(=O)CC[C@H](NC(=O)c1ccc(NCc2cnc3nc(N)[nH]c(=O)c3n2)cc1)C(=O)O)C(=O)O)NC(=O)CC[C@H](NC(=O)c1ccc(NCc2cnc3nc(N)nc(N)c3n2)cc1)C(=O)O`, “CD172+ CD43− monocyte effect” read “no effect” (flow cytometry; Lewis rat, healthy, blood; 1000 nmol/kg twice weekly × 1).
`COc1c2c(cc3oc(COC4OC(CO)C(O)C(O)C4O)cc(=O)c13)OC(C(C)(C)O)C2` (stereo not drawn): “hot plate latency” 12.2 ± 1.28 s (analgesia; mouse; oral, 4 mg/kg, 1.5 h).
